Assay results from different studies.
Numbered parts are unrelated; each lists some results of a single study.

Series 1
Target: Prothrombin, mature alpha-thrombin (F2, Homo sapiens, UniProt P00734)
Technique: aptamer microarray, sandwich
Form: DNA with 2'F-ANA
Medium: in vitro
Tested at: 200 nM
Notes: whole 15-mer aptamer, many near background
Together with: Cy3 exosite-II aptamer, 400 nM
Reading: higher = stronger binding
Oligonucleotide: GGTTGGTGTGGTTGG
Modification | mean fluorescence intensity [a.u.]
2'F-ANA at 3 4 5 10 14 | 56.9
2'F-ANA at 3 5 7 10 12 14 15 | 67
2'F-ANA at 1 2 4 5 8 10 11 13 14 15 | 48
2'F-ANA at 1 4 5 6 7 14 15 | 46
2'F-ANA at 1 2 4 5 6 8 10 15 | 48.3

Series 2
Target: Centromere-binding protein 1, full length, His-tagged (CBF1, Saccharomyces cerevisiae, UniProt P17106, residues 1-351)
Chain of UniProt P17106 (whole entry, looked up): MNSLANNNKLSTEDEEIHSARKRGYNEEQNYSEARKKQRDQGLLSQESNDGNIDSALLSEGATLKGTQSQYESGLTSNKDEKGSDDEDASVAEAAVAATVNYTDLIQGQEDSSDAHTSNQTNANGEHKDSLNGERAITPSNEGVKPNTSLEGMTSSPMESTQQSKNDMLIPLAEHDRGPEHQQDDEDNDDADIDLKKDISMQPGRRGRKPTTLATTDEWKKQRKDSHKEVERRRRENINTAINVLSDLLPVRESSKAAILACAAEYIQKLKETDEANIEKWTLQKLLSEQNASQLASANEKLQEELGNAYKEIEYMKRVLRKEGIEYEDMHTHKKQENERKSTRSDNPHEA
Technique: competition protein-binding microarray
Form: double-stranded DNA, one strand shown
Medium: in vitro
Tested at: 2 µM
Notes: whole 60-bp probe, lowest competitor level
Together with: Pho4 competitor, 0.05 µM
Reading: higher = stronger binding
All sequences stand within: … GTCTTGATTCGCTTGACGCTGCTG
Oligonucleotide | fluorescence intensity [a.u.]
CCGAAGCAAATGATGGCCGTGACGGCAGCACAATAG | 69.2
AAAGCGGTAATTTGTCACTGGACTTCACATATCTAT | 114
TTACTTTTTCAAAGACTCGTGCTTTCTATTGCATAA | 174
AAAGCGGTAATTTGAACGGTGGGTGCAGATATCTAT | 82.3
CCACACTGACCGAGTCACGTGTGTTTATTCTGTTTT | 5230
GTCTTGTCTCATTGGACTGTGGGTGTCCCCACTTCA | 77.5

Series 3
Target: Histone acetyltransferase KAT6A, winged helix 1, GST fusion (KAT6A, Homo sapiens, UniProt Q92794, residues 1-85)
Technique: protein binding microarray
Form: double-stranded DNA, one strand shown
Medium: in vitro
Tested at: not given
Notes: 8-mer, flanks averaged, mean of 2 arrays, mostly near background
Reference: not given
Reading: higher = stronger binding
Residues (chain): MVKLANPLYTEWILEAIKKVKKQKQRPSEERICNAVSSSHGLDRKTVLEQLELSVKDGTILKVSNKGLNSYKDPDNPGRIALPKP
Oligonucleotide | E-score
TAGAATGA | -0.107
GCCGGTAA | 0.376
GCCAGACA | -0.146
AAGTATGG | -0.175
ATAACGCA | -0.00456

Further values, each from its own experiment
Substance | target | assay | system | conditions | scale | endpoint | value
PhoQ, residues 284 288 289 292 302 303 ALSMDL | PhoP, residues 12 14 15 18 19 NFCKL (Escherichia coli, UniProt P23836) | Sort-seq, refers to: YFP reporter | E. coli | PhoQ-PhoP variant library, together with: 10 µM Mg2+ | reference: high Mg2+ state, higher = stronger signaling | fold induction | 18.1

Repeated from above (series 3):
Oligonucleotide | E-score
TAGAATGA | -0.107
